Measured values gathered from unrelated publications.
Protocols differ between the studies behind these lines. ± marks the error that the study gave.

SMILES | tested on | assay | test system | setting | endpoint | result
CC(C)C1=C(O)C(=O)C2=C(C1=O)[C@H](O)[C@@H](O)[C@H]1C(C)(C)CCC[C@]21C | MCR5 | cell growth or viability, MTT | – | 72 h | GI50 | 91000 nM
CC(=C(c1ccc(O)cc1)c1ccc(Cl)cc1)c1ccc(Cl)cc1 | NCI-60 cell lines | NCI five-dose screen | – | median over 60 lines | GI50 | 750 nM
C1=[N+]2CCCC[N+]3=Cc4ccc5[n]4[Au-]23[n]2c1ccc2-c1nc2ccccc2nc1-5.F[P-](F)(F)(F)(F)F | ovarian cancer cell lines | – | – | NCI60 panel mean | GI50 | 11000 nM
CC/C=C\C/C=C\C/C=C\C/C=C\C/C=C\C/C=C\CCC(=O)Nc1ccn(C2OC(CO)C(O)C2(F)F)c(=O)n1 (stereo not shown) | HCC 2998 | cell growth or viability, SRB | – | – | GI50 | 10600 nM
[64Cu+2].c1cnc(CNCc2ccc(CN3CCCN4CCNCCCN(CC4)CC3)cc2)nc1 | CXCR4 | – | NOD/SCID mouse, U87 and U87-stb-CXCR4 xenografts, spleen | iv, 240 min, ex vivo | tissue uptake | 12.8 ± 1.43 %ID/g
CC[C@H](C)[C@@H]([C@@H](CC(=O)N1C[C@@H](N=[N+]=[N-])C[C@H]1[C@H](OC)[C@@H](C)C(=O)N[C@@H](Cc1ccccc1)C(=O)OC)OC)N(C)C(=O)[C@@H](NC(=O)[C@@H](NC)C(C)C)[C@H](C)N=[N+]=[N-] | MOLM-13 | cell growth or viability, resazurin | – | – | GI50 | 0.279 nM
COC1CN([C@H]2CC[C@H]([C@@]3(C)Oc4c(Cl)cc(C(=O)NCc5c(SC)cc(C)[nH]c5=O)c(C)c4O3)CC2)C1 | HT1197 | cell growth or viability, ATP luminescence | – | 12 days | GI50 | 50 nM
COc1cccc2c(NCc3ccccc3)nc(NCc3cccs3)nc12 | HCT-15 | cell growth or viability | – | 24 h | GI50 | 820 nM
CCN1CCN(Cc2ccc(C(=O)Nc3ccc(C)c(NCc4cnc5[nH]ccc5c4OC)c3)cc2C(F)(F)F)CC1 | SNU-449 | cell growth or viability | – | 48 h | GI50 | 1100 nM
CC(Cc1ccc(Cl)cc1)=C(c1ccc(Cl)cc1)c1ccc(OCCN(C)C)cc1 | NCI-60 cell lines | NCI five-dose screen | – | mean over 60 lines | GI50 | 3920 nM
Cc1nc(F)ccc1-c1cc(Cn2ccn(C)c2=N)cc(C(=O)NCc2ccc(Cl)c(Cl)c2)c1 | MV4-11 scrambled shRNA | cell proliferation | – | 72 h | GI50 | 2000 nM
COc1cccc2c(NCc3ccccc3)nc(Nc3cccc(F)c3)nc12 | HCT-15 | cell growth or viability | – | 24 h | GI50 | 8000 nM
CC[C@H](C)[C@@H]([C@@H](CC(=O)N1C[C@@H](N=[N+]=[N-])C[C@H]1[C@H](OC)[C@@H](C)C(=O)N[C@@H](Cc1ccccc1)C(=O)OC)OC)N(C)C(=O)[C@@H](NC(=O)[C@@H](NC)C(C)C)C(C)C | MOLM-13 | cell growth or viability, resazurin | – | – | GI50 | 0.224 nM
Nc1nc2cc(CC[C@H]3C[C@@H](n4ccc5c(N)ncnc54)[C@H](O)[C@@H]3O)ccc2cc1Br | DMS-53 | cell growth or viability, MTT | – | 6 days | GI50 | > 1000 nM
CCC(=C(c1ccc(Cl)cc1)c1ccc(OCCCN(C)C)cc1)c1ccc(OC)cc1 | NCI-60 cell lines | NCI five-dose screen | – | median over 60 lines | GI50 | 3090 nM
CC[C@H](C)[C@@H]([C@@H](CC(=O)N1C[C@@H](N=[N+]=[N-])C[C@H]1[C@H](OC)[C@@H](C)C(=O)N[C@@H](Cc1ccccc1)C(=O)OC)OC)N(C)C(=O)[C@@H](NC(=O)[C@H](C(C)C)N(C)C)[C@H](C)N=[N+]=[N-] | SW780 | cell growth or viability, resazurin | – | – | GI50 | 0.365 nM

Some of these lines once more:
SMILES | tested on | assay | test system | setting | endpoint | result
CC(=C(c1ccc(O)cc1)c1ccc(Cl)cc1)c1ccc(Cl)cc1 | NCI-60 cell lines | NCI five-dose screen | – | median over 60 lines | GI50 | 750 nM
Nc1nc2cc(CC[C@H]3C[C@@H](n4ccc5c(N)ncnc54)[C@H](O)[C@@H]3O)ccc2cc1Br | DMS-53 | cell growth or viability, MTT | – | 6 days | GI50 | > 1000 nM
